Published values of several laboratories.
Compare with care: the assays were run in different laboratories. ± marks the error that the study gave.
B1: Cacna1c 1647-1777 (Mus musculus, UniProt Q01815); sequence looked up; chain NALSLQAGLRTLHDIGPEIRRAISGDLTAEEELDKAMKEAVSAASEDDIFRRAGGLFGNHVTYYQSDSRGNFPQTFATQRPLHINKTGNNQADTESPSHEKLVDSTFTPSSYSSTGSNANINNANNTALGR
B2: PUX5 301-421 (Arabidopsis thaliana, UniProt Q7Y175); chain KNPFQGVGRTLGASGSGSSSAPQASSAPMNVAPAPSRGLVVDPAAPTTSIQLRLADGTRLVSRFNNHHTVRDVRGFIDASRPGGSKEYQLLTMGFPPKQLTELDQTIEQAGIANAVVIQKF
B3: MDM4 23-190 (Homo sapiens, UniProt O15151); chain GPLGSQINQVRPKLPLLKILHAAGAQGEMFTVKEVMHYLGQYIMVKQLYDQQEQHMVYCGGDLLGELLGRQSFSVKDPSPLYDMLRKNLVTLATATTDAAQTLALAQDHSMDIPSQDQLKQSAEESSTSRKRTTEDDIPTLPTSEHKCIHSREDEDLIENLAQDETSRLDLGF
B4: CFH domains 1108-1231 R1182S (Homo sapiens, UniProt P08603); sequence looked up; chain KCGPPPPIDNGDITSFPLSVYAPASSVEYQCQNLYQLEGNKRITCRNGQWSEPPKCLHPCVISREIMENYNIALSWTAKQKLYSRTGESVEFVCKRGYRLSSRSHTLRTTCWDGKLEYPTCAKR
Sequence of UniProt P14780 (whole entry, looked up): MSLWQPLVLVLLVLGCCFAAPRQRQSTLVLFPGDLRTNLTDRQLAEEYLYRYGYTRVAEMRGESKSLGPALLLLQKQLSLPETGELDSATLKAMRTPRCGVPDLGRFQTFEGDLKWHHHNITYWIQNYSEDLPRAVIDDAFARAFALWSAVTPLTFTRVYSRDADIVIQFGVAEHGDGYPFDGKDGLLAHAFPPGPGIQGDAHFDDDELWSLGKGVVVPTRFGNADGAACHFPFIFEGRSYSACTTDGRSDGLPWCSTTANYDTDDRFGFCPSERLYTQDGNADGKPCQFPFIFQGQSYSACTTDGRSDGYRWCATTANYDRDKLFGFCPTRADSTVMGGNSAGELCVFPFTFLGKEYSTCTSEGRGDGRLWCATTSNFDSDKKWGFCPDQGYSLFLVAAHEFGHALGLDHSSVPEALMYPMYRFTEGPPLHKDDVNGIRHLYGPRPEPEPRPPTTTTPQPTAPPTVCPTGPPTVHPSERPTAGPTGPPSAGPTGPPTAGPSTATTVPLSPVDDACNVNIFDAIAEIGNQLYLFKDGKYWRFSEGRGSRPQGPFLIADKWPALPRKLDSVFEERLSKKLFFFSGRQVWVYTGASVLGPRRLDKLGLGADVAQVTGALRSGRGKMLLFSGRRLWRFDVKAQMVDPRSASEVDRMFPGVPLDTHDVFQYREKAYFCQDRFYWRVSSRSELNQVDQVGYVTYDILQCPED
Sequence of UniProt Q13283 (whole entry, unmodified, looked up): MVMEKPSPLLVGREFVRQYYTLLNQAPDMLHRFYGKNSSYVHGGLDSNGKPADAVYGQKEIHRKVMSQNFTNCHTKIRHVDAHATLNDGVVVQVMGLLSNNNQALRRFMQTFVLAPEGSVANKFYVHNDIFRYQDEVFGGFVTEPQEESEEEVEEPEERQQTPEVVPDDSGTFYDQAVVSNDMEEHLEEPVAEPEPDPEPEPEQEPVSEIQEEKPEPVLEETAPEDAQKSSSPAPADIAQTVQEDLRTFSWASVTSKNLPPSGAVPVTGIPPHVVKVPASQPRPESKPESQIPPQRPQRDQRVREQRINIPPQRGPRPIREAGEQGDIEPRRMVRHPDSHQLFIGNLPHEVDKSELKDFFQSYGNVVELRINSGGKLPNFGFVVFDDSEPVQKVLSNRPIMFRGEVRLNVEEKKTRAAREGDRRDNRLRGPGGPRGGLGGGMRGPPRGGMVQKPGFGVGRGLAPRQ
Sequence of UniProt P01024 (whole entry, looked up): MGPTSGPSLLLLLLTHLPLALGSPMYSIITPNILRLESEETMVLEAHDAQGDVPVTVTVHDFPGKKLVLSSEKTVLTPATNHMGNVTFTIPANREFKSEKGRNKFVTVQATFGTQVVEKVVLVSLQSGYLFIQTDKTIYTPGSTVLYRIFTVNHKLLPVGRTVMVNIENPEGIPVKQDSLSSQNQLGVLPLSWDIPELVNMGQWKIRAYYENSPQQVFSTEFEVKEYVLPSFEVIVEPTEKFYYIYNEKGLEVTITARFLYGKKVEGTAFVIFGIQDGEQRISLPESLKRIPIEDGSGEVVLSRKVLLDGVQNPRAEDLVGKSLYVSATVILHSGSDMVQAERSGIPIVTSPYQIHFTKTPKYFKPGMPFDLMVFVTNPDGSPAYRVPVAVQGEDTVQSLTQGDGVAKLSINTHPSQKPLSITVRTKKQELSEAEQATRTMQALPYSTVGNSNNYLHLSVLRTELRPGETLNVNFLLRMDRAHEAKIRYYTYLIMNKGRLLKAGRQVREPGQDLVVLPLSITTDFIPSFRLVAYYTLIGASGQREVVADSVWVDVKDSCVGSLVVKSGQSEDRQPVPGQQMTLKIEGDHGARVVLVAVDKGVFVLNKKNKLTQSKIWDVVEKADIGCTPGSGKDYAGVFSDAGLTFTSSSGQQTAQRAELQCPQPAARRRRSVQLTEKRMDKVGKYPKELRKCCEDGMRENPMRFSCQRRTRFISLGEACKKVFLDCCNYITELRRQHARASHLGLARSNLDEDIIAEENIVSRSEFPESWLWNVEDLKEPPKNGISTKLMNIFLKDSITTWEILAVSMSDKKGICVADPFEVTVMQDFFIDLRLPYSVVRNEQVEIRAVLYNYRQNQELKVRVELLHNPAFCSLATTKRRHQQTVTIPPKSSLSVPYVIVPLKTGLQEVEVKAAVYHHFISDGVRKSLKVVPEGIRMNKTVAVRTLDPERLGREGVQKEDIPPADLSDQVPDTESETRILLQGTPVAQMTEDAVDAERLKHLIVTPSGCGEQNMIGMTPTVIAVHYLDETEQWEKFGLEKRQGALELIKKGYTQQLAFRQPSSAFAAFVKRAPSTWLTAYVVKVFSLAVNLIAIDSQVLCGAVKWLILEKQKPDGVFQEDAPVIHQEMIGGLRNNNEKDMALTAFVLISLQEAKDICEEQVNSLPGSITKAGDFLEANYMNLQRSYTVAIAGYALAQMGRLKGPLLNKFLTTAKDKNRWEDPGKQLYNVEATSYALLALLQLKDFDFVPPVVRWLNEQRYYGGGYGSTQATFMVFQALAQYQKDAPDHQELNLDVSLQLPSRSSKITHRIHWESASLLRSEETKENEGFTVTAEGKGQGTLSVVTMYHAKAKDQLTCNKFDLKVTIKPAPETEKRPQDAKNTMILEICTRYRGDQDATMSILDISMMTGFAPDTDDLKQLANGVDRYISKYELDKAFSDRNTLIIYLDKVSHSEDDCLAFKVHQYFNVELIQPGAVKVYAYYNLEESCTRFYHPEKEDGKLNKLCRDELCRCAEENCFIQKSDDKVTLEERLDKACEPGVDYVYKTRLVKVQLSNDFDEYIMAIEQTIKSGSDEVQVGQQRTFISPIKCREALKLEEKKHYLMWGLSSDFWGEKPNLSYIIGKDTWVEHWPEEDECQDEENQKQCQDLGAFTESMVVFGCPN
Sequence of UniProt P54609 (whole entry, looked up): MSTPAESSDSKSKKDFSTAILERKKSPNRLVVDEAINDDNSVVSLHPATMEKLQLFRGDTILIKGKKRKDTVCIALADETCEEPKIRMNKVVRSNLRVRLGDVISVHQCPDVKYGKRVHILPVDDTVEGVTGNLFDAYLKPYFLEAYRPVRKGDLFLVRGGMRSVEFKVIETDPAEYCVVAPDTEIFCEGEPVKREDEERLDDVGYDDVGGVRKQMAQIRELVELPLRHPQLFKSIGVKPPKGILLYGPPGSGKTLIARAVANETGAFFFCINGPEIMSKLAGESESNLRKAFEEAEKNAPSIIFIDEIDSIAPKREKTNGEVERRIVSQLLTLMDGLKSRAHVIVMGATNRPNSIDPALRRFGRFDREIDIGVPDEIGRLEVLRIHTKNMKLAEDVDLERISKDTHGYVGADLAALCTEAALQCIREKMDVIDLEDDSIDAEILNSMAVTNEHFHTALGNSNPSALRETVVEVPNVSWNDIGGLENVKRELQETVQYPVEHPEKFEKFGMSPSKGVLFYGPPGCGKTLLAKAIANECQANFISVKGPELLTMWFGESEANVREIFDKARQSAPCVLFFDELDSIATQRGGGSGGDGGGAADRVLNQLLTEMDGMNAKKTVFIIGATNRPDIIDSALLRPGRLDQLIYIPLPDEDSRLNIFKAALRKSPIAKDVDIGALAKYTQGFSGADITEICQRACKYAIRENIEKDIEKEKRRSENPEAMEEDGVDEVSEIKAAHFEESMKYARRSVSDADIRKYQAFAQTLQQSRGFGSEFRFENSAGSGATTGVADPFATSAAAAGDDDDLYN

Substance | target or system | assay | system | setting | how to read | measurement | value
ALLQWVTQV | Jurkat T cells expressing 1G4 TCR | NFAT-eGFP reporter, fluorescence microscopy | peptide | concentration not given, HLA-A*02:01 NY-ESO system | – | reporter activation | 26.5%
GSGAGKETEC | human MAGI1-2/6 PDZ construct (MBP fusion) | automated holdup | peptide, purified PDZ protein | concentration not given, unit not given | baseline: biotin control resin, higher = stronger binding | binding intensity | -0.224
Palld fragment (Mus musculus) (sequence not shown) | ACTA1 F-actin (Oryctolagus cuniculus, UniProt P68135) | co-sedimentation | – | – | – | Kd | 3.4 ± 0.7 µM
NUMB PTB domain | VSIR 232-258 peptide, N-terminal 5-FAM (Homo sapiens) | fluorescence polarisation | – | – | – | Kd | 5.5 µM
BSG extracellular domain deleted | G3BP1 (Homo sapiens, UniProt Q13283) | SPR | – | – | – | Kd | 0.032 µM
TIMP1 (Homo sapiens, UniProt P01033) | MMP9 (Homo sapiens, UniProt P14780) | BLI | – | – | – | Kd | 0.059 µM
SCN2A IQ region R1902C (Homo sapiens) (sequence not shown) | CALM1 (Homo sapiens, UniProt P0DP23) | fluorescence titration | – | pH 7.4, 22 °C, added: calcium | – | Kd | 0.0525 µM
B1 (Cacna1c 1647-1777) | Jph2 1-440 S165C (Mus musculus, UniProt Q9ET78) | ITC | – | – | – | Kd | 6.92 µM
ICLTSTVQLIM | HLA class I histocompatibility antigen, A alpha chain, allele A*01:01 (Homo sapiens, UniProt P04439) | conformational ELISA | peptide | concentration not given | baseline: positive control peptide, direction not given | binding score | 5.5%
B2 (PUX5 301-421) | CDC48A 1-463 (Arabidopsis thaliana, UniProt P54609) | ITC | – | 25 °C | – | Kd | 3.2 ± 0.4 µM
B3 (MDM4 23-190) | TP53 1-312 (UniProt P04637) | ITC | – | – | – | Kd | 0.073 µM
ENAH EVH1 domain (Homo sapiens) | KANK4 peptide (Homo sapiens) | BLI | – | – | – | Kd | > 150 µM
GCVRLHESCLGQQVPCCDPAATCYCYGRGDNDLRCYCR (designed binder) | ITGAV/ITGB3 K562 cells | flow cytometry | designed binder, U87MG | – | – | Kd | 0.0024 µM
TLIMWIERV | Jurkat T cells expressing 1G4 TCR | NFAT-eGFP reporter, flow cytometry | peptide | concentration not given, HLA-A*02:01 NY-ESO system | – | reporter activation | 0.19%
B4 (CFH domains 1108-1231 R1182S) | C3 C3dg 955-1303 (Homo sapiens, UniProt P01024) | SPR | – | – | – | Kd | 8.1 ± 0.2 µM

Excerpt of the above:
Substance | target or system | assay | system | setting | how to read | measurement | value
TIMP1 (Homo sapiens, UniProt P01033) | MMP9 (Homo sapiens, UniProt P14780) | BLI | – | – | – | Kd | 0.059 µM
